Assay results collected from several papers.
Compare with care: the assays were run in different laboratories.
Target: Histone deacetylase 5 (HDAC5, Homo sapiens, UniProt Q9UQL6)
Chain of UniProt Q9UQL6 (whole entry, looked up): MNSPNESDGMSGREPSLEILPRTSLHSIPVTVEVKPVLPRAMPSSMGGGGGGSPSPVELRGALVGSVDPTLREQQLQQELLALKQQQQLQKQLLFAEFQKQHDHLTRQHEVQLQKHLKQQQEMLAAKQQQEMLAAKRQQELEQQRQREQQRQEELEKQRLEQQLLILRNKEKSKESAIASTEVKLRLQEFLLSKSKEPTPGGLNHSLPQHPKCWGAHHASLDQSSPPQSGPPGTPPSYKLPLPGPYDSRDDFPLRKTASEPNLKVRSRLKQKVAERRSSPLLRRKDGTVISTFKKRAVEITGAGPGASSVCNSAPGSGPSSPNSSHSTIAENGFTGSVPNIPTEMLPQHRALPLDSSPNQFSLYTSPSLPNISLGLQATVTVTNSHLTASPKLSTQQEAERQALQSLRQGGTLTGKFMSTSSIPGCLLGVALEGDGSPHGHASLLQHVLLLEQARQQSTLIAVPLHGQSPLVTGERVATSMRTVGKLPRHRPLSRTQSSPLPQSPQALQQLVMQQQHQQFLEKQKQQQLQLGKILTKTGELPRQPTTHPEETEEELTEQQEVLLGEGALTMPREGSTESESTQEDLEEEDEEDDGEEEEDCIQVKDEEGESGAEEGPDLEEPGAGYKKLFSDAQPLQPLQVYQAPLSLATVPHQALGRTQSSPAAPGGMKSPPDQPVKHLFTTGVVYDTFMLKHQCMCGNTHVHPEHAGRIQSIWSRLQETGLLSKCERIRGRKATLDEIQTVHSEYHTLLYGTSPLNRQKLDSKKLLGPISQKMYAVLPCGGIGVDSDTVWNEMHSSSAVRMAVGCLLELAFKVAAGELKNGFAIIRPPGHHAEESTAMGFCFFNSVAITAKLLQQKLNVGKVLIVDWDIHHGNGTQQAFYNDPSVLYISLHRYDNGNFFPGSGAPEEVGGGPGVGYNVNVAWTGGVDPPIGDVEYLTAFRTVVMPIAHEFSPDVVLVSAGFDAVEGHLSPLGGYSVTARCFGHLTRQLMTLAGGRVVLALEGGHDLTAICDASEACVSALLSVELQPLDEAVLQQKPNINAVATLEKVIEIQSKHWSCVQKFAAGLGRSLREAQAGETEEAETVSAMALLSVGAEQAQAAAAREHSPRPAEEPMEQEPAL
Mode: inhibitor

Structure (SMILES)	observed	technique	matrix	time	endpoint	result
Cc1nc2c(F)cc(-c3nc(Nc4ccc(CNC(=O)CCCCCCC(=O)NO)cc4)ncc3F)cc2n1C(C)C	enzyme activity				IC50	> 10 µM
O=C(CCc1ccc(CNC(C(=O)OC2CCCC2)C2CCCCC2)cn1)NO (stereo not shown)	enzyme activity				IC50	> 10 µM
O=C(NO)c1cnc(NC2(c3cccc(F)c3)CCCCC2)nc1		competition pulldown	SW620 and MV4-11 lysate	1 h	Kd	> 30.2 µM
O=C(CCNc1cccc2c1C(=O)N(C1CCC(=O)NC1=O)C2=O)NCCOCCOCCOCCN1CCC(CNC(=O)c2cccc(-c3noc(C(F)(F)F)n3)c2)(c2nc(-c3ccccc3)cs2)CC1 (stereo not shown)	enzyme activity				IC50	2.54 µM
CCCCCCN(O)C(=O)CCCCC[C@@H]1NC(=O)[C@H]([C@@H](C)CC)NC(=O)[C@H](Cc2ccccc2C(F)(F)F)NC(=O)CCSCc2cccc(n2)CSCCCNC1=O	enzyme activity	fluorogenic			IC50	> 30 µM
O=C1CCC(N2C(=O)c3ccc(N4CC(C(=O)N5CC(CN6CCC(CNC(=O)c7cccc(-c8noc(C(F)(F)F)n8)c7)(c7nc(-c8ccccc8)cs7)CC6)C5)C4)cc3C2=O)C(=O)N1 (stereo not shown)	enzyme activity				IC50	> 10 µM
COc1ccc(C(=O)NO)cc1NC(=O)c1ccc(-c2ccccc2)cc1		competition pulldown	SW620 and MV4-11 lysate	1 h	Kd	> 30.2 µM
O=C1CCC(N2C(=O)c3ccc(N4CCC(C(=O)N5CCC(CCN6CCC(CNC(=O)c7cccc(-c8noc(C(F)(F)F)n8)c7)(c7nc(-c8ccccc8)cs7)CC6)CC5)CC4)cc3C2=O)C(=O)N1 (stereo not shown)	enzyme activity				IC50	> 10 µM
CC[C@H](C)[C@@H]1NC(=O)[C@H](Cc2ccccc2C(F)(F)F)NC(=O)CCSCc2cccc(n2)CSCCCNC(=O)[C@H](CCCCCC(=O)O)NC1=O	enzyme activity	fluorogenic			IC50	> 30 µM
Nc1ccc(-c2ccc(F)cc2)cc1NC(=O)C1CCOCC1	enzyme activity				IC50	> 33.3 µM

A few entries again:
Structure (SMILES)	observed	technique	matrix	time	endpoint	result
O=C(CCNc1cccc2c1C(=O)N(C1CCC(=O)NC1=O)C2=O)NCCOCCOCCOCCN1CCC(CNC(=O)c2cccc(-c3noc(C(F)(F)F)n3)c2)(c2nc(-c3ccccc3)cs2)CC1 (stereo not shown)	enzyme activity				IC50	2.54 µM
